Measured values pooled from the literature.
± marks the error that the study gave.

Under “log tautomerization constant”, O=C1CC[C@@]2(O)[C@H]3Cc4ccc(O)c5c4[C@@]2(CCN3CC2CCC2)[C@H]1O5 is recorded as 0.55.
Under “organ-to-body weight ratio”, O=C1NC2(CC2)COc2ncc(F)cc2[C@H]2COCCN2c2ccn3ncc1c3n2 is recorded as 0.139 ± 0.034% (Sprague-Dawley rat, male, thymus; oral, 2.5 mg/kg/day, 4 weeks, end of treatment).
With [2H]c1nc([2H])c(-c2nc([2H])n3c2C([2H])([2H])N=C(c2ccccn2)c2cc(C#C)ccc2-3)o1 the Tmax was ~1 h (Sprague Dawley rat, plasma; oral, 2 mg/kg, cassette dosing).
The SUV of NC[C@]1(CC(=O)O)CC[C@H]([18F])CC1 is reported as 0.7 (PET; rhesus monkey, brain; intravenous, 180 min, baseline scan).
CN1CC[C@]23c4c5ccc(O)c4O[C@H]2[C@H](O)C=C[C@H]3[C@H]1C5: “log k amino protonation” 9.03.
With COc1ccc(-n2cc(C(=O)N3C[C@]4(OC(=O)c5ccccc5NC(C)=O)CC[C@H](OC)[C@@]56[C@@H]4C[C@@H]([C@@H]35)[C@@]3(O)C[C@H](OC)[C@H]4C[C@@H]6[C@]3(O)[C@H]4OC)nn2)cc1 the concentration was 40.2 ng/mL (Sprague-Dawley rat, plasma; intravenous, 2 mg/kg, 15 min).
With COc1cc2c(cc1NC(=O)c1cncn1C)C[C@H]1[C@H]3CCCC[C@@]23CCN1C the efflux ratio was 7.19 (Caco-2; 10 µM, pH 6.5).
Oc1ccc2c3c1O[C@H]1[C@@H](O)CC[C@H]4[C@@H](C2)N(CC2CCC2)CC[C@@]341 — result for “log k amino protonation”: 9.43 (phenolate protonated).
Cc1sc2c(c1C)C(c1ccc(Cl)cc1)=N[C@@H](CC(=O)OC(C)(C)C)c1nnc(C)n1-2 gave an AUC(0-t) of 2040 ng·h/mL (CD1 mouse, male, plasma; oral, 10 mg/kg).
With O=C(c1cncc2cc[nH]c12)N1CCC(=C2c3ccccc3CS(=O)(=O)c3ccccc32)CC1 the AUC(0-inf) was 7640 ng·h/mL (mouse; oral, 50 mg/kg).

For quick reference, copied from above:
With COc1ccc(-n2cc(C(=O)N3C[C@]4(OC(=O)c5ccccc5NC(C)=O)CC[C@H](OC)[C@@]56[C@@H]4C[C@@H]([C@@H]35)[C@@]3(O)C[C@H](OC)[C@H]4C[C@@H]6[C@]3(O)[C@H]4OC)nn2)cc1 the concentration was 40.2 ng/mL (Sprague-Dawley rat, plasma; intravenous, 2 mg/kg, 15 min).
